{"data": "Published values of several laboratories", "note": "Numbered parts are unrelated; each lists some results of a single study."}
{"data": "Series 1", "target": "Sal-like protein 4, full length isoform A (SALL4, Homo sapiens, UniProt Q9UJQ4, residues 1-1053)", "method": "universal PBM", "form": "double-stranded DNA, one strand shown", "matrix": "in vitro", "tested at": "600 nM", "setting": "8-mer, flanks averaged, mean of replicates", "direction": "higher = stronger binding", "chain of UniProt Q9UJQ4 (whole entry, looked up)": "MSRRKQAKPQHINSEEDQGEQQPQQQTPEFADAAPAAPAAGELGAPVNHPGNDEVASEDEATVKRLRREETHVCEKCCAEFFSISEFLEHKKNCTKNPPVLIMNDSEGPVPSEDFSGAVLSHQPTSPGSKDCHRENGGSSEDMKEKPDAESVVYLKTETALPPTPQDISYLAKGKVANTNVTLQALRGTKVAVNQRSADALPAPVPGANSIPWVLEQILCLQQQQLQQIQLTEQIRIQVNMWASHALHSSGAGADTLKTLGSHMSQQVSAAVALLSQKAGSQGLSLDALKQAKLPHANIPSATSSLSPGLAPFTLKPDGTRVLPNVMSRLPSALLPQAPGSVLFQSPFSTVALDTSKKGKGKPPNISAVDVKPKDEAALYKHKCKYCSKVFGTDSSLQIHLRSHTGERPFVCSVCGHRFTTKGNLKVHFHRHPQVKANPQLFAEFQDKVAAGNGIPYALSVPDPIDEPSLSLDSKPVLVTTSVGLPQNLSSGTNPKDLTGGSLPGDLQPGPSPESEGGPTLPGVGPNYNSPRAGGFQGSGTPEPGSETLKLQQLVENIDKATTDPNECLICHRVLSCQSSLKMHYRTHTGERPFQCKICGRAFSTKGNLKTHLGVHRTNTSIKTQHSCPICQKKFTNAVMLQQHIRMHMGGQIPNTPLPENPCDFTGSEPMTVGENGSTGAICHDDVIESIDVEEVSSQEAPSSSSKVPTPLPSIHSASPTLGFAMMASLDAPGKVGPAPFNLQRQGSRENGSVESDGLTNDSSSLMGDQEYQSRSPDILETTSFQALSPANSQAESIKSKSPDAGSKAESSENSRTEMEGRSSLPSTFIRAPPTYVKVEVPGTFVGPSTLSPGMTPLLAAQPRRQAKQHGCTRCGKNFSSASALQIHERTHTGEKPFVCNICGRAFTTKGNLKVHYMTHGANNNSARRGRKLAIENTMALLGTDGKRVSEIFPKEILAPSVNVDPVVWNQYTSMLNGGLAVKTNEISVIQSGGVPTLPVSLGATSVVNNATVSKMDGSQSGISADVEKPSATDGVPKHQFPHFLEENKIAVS"}
{"Strand": "CCTGTTCA", "E-score": -0.092}
{"Strand": "CCGTCGGA", "E-score": -0.233}
{"Strand": "CCGTACCG", "E-score": -0.326}
{"Strand": "CCGCATGA", "E-score": -0.0615}
{"Strand": "GCTCGACA", "E-score": -0.161}
{"Strand": "CCCAATGC", "E-score": -0.181}
{"Strand": "ACAACACC", "E-score": 0.104}
{"Strand": "ATACTCAG", "E-score": 0.142}
{"Strand": "CTGCCGTA", "E-score": -0.066}
{"Strand": "CTTAAGTC", "E-score": 0.011}
{"Strand": "CCCGCACC", "E-score": -0.337}
{"Strand": "ACCCGCTG", "E-score": -0.253}
{"Strand": "CCTCCGCC", "E-score": -0.283}
{"Strand": "CCAATGCG", "E-score": -0.156}
{"Strand": "AAGTTCGG", "E-score": -0.166}
{"Strand": "GGAGTTAA", "E-score": 0.0405}
{"Strand": "AGCAATAT", "E-score": 0.374}
{"Strand": "AGGACTAC", "E-score": -0.098}
{"Strand": "AAAGACTA", "E-score": 0.0685}
{"Strand": "AGATCCTA", "E-score": -0.0589}
{"Strand": "ATCGTTAC", "E-score": 0.11}
{"Strand": "GAGTACGA", "E-score": 0.0792}
{"Strand": "CTTCACGA", "E-score": -0.222}
{"Strand": "CGAGGTCC", "E-score": -0.343}
{"Strand": "TATTGCAA", "E-score": 0.231}
{"data": "Series 2", "target": "Fragile X messenger ribonucleoprotein 1, C-terminal low-complexity region (Fmr1, Mus musculus, UniProt P35922)", "method": "RNA Bind-n-Seq", "form": "RNA", "matrix": "in vitro", "tested at": "200 nM", "setting": "whole 134-nt RNA, ends assumed", "added": "150 mM KCl", "relative to": "input library", "direction": "higher = stronger binding", "all sequences stand within": "GGGAGUUCUACAGUCCGACGAUC … UGGAAUUCUCGGGUGUCAAGG"}
{"Strand": "AAGUCCUGUGCUACACAUCGUAUGUACCGAAUCGGAAAAGGGAAAAGGGAAAAGGGGAAAGUAUUAUGUUACGCCGUUCGGAUCUGCACU", "log2 enrichment": -0.0348}
{"Strand": "CCUGUGCUACACAUCGUAUGUACCGAAUCGGGGAAAAAAAGGGGAGGGGAAAAAAAGGGGAAAGUAUUAUGUUACGCCGUUCGGAUCUGC", "log2 enrichment": -0.000793}
{"Strand": "UCCUGUGCUACACAUCGUAUGUACCGAAUCGGGGAAAAAGGGGUUUUUGGGGAAAGGGGAAAGUAUUAUGUUACGCCGUUCGGAUCUGCA", "log2 enrichment": 0.799}
{"Strand": "GUCCUGUGCUACACAUCGUAUGUACCGAAUCAAAUUUUUUUAAAUUUUUAAACCCAAAAAAGUAUUAUGUUACGCCGUUCGGAUCUGCAC", "log2 enrichment": 0.182}
{"Strand": "UCCUGUGCUACACAUCGUAUGUACCGAAUCAAAUUUUUUUAAAUUUUUUUAAACCCAAAAAAGUAUUAUGUUACGCCGUUCGGAUCUGCA", "log2 enrichment": 0.458}
{"Strand": "GUCCUGUGCUACACAUCGUAUGUACCGAAUCGGGAAAAAAAGGGAAAAAGGGAAAGGGAAAGUAUUAUGUUACGCCGUUCGGAUCUGCAC", "log2 enrichment": -0.361}
{"Strand": "CCUCAAGUCCUGUGCUACACAUCGUAUGUACCGAAUCGGUUGGUUGGUUGGGGAAAGUAUUAUGUUACGCCGUUCGGAUCUGCACUUCCA", "log2 enrichment": -0.00898}
{"Strand": "AGUCCUGUGCUACACAUCGUAUGUACCGAAUCGGGAAAAAGGGAGGGUUUUUUUGGGAAAGUAUUAUGUUACGCCGUUCGGAUCUGCACU", "log2 enrichment": 0.491}
{"Strand": "UCCUGUGCUACACAUCGUAUGUACCGAAUCGGGGAGGGGUUUUUUUGGGGUUUUUGGGGAAAGUAUUAUGUUACGCCGUUCGGAUCUGCA", "log2 enrichment": 0.827}
{"data": "Series 3", "target": "RNA binding protein fox-1 homolog 2, RRM domain, GST-SBP tag (RBFOX2, Homo sapiens, UniProt O43251-10, residues 100-194)", "method": "RNA Bind-n-Seq", "form": "RNA", "matrix": "in vitro", "tested at": "365 nM", "setting": "natural RNA segment, single round, ends assumed", "relative to": "no-protein control", "direction": "higher = stronger binding", "all sequences stand within": "GGGAGUUCUACAGUCCGACGAUC … UGGAAUUCUCGGGUGCCAA"}
{"Strand": "AACAUUUGAUCUAGCAGCAGGGAUGAGAGGAAAGCAGAAAUGAAUGAACUGUGAAAGCUCCUGUUUUUAUUAUCAAAAAGGACACUGUCAAGAAGGCGCCCCCUGCCCCC", "RBNS enrichment (R)": 2.15}
{"Strand": "UCUCAUUGUUUUUCUCUAGCUACCCUACUCAUCACUGGCUCCCUCAGCACCAGGCCUGUAUAACGUGGUUCUCACGUUACCCUGGCAGCAUACAGGAUGGGGAGUCUGGU", "RBNS enrichment (R)": 0.613}
{"Strand": "GCUAUUGAGAGUUGCAGUGUUUUACUUUUUAAUACAGUGACUGCACUUGGGACAGACUAUUUGUAGUGUCUAUAGGACAUGAAGCGUGCAGCUUGGAGAGCAAAGGCACU", "RBNS enrichment (R)": 0.39}
{"Strand": "CGGCCUGACCCGCAAUGGGCAGAGGGUGGGUGGGACCCCCUGCUGCAGGGCAGAGUUCAGGUCCACUGGGCUGAGUGUCCCCUUGGGCCCAUGGCCCAGUCACUCAGGGG", "RBNS enrichment (R)": 0.513}
{"Strand": "GCAAGAAUUGGUUGCAAAAAAAUGCUUUAUUUUUGAACAAUGCUUGGAAAUAUUAUGUGACUUUUUUGUUUGUUUGUUUUAGGAGGAUGGUGUAUGGUGGGGGCAAUAAA", "RBNS enrichment (R)": 4.8}
{"Strand": "GAAGUUGGUCCUAGUUUACAUCUUAGAGGAAUGUAUAUGUAUGUUUUACAUGCCUAAAUAUCUGCAGGUUUUCUUACAGGUAAAGCGAAGUGCUUUGAAAAGUUUAGAUU", "RBNS enrichment (R)": 0.621}
{"Strand": "UCAGCAGAGAGGUGAGGGACUCAGACAUAUAUCUAAGUUGAAUAGCAUCCCCAUCGCAGCUGUAAGAAUUGAGCUGCAGAAGGUACCCUCUGUCGGGAUUGUAUCUCGAC", "RBNS enrichment (R)": 0.692}
{"Strand": "CUCUAGCCCCGCUCUCUUCCCCUCUUUCUGUCCCCCAUUUUCCAGGGGGUAUAUGGUCAGGGCUCCCCAACCUGAGUUGGGUUACUUCAAGGGCAGCCAGCAGGCCUGGA", "RBNS enrichment (R)": 0.365}
{"data": "Series 4", "target": "Histone acetyltransferase KAT6A, winged helix 2, GST fusion (KAT6A, Homo sapiens, UniProt Q92794, residues 85-181)", "method": "protein binding microarray", "form": "double-stranded DNA, one strand shown", "matrix": "in vitro", "tested at": "not given", "setting": "8-mer, flanks averaged, mean of 2 arrays, mostly near background", "relative to": "not given", "direction": "higher = stronger binding", "Residues (chain)": "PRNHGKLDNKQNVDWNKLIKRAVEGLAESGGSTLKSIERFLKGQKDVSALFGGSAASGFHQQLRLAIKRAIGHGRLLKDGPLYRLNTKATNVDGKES"}
{"Strand": "CAGCGTGG", "E-score": 0.148}
{"Strand": "CCGGGTGA", "E-score": 0.115}
{"Strand": "CTGCGCTC", "E-score": 0.0478}
{"Strand": "GGCTAGAC", "E-score": -0.12}
{"Strand": "GCCGCAAC", "E-score": 0.115}
{"Strand": "GATATAGC", "E-score": -0.0667}
{"Strand": "ATGGGATG", "E-score": -0.173}
{"Strand": "CAATGTTC", "E-score": -0.139}
{"Strand": "ACCGTAGA", "E-score": -0.172}
{"Strand": "CCCCCGCG", "E-score": 0.249}
{"Strand": "TCGCACGA", "E-score": 0.0433}
{"Strand": "GTTTCGTA", "E-score": 0.0824}
{"Strand": "GACTTCTA", "E-score": -0.18}
{"Strand": "TAAGCTTA", "E-score": 0.0582}
{"Strand": "ACGCAGAA", "E-score": 0.157}
{"Strand": "CCACGTGG", "E-score": -0.168}
{"Strand": "CTCTGGTA", "E-score": -0.0144}
{"Strand": "GGTCGGCA", "E-score": 0.239}
{"Strand": "CCCGCCGG", "E-score": 0.227}
{"Strand": "GAAGGAAA", "E-score": 0.107}
{"Strand": "AGCTGTGC", "E-score": 0.157}
{"Strand": "CTGTGATA", "E-score": -0.0284}
{"Strand": "GGGTCGCA", "E-score": 0.147}
{"Strand": "ACGATGCT", "E-score": -0.0424}
{"Strand": "GAATAGGA", "E-score": -0.0668}
{"note": "Some of these lines once more (series 2):"}
{"Strand": "UCCUGUGCUACACAUCGUAUGUACCGAAUCGGGGAAAAAGGGGUUUUUGGGGAAAGGGGAAAGUAUUAUGUUACGCCGUUCGGAUCUGCA", "log2 enrichment": 0.799}
{"Strand": "AGUCCUGUGCUACACAUCGUAUGUACCGAAUCGGGAAAAAGGGAGGGUUUUUUUGGGAAAGUAUUAUGUUACGCCGUUCGGAUCUGCACU", "log2 enrichment": 0.491}
{"Strand": "CCUGUGCUACACAUCGUAUGUACCGAAUCGGGGAAAAAAAGGGGAGGGGAAAAAAAGGGGAAAGUAUUAUGUUACGCCGUUCGGAUCUGC", "log2 enrichment": -0.000793}
{"Strand": "CCUCAAGUCCUGUGCUACACAUCGUAUGUACCGAAUCGGUUGGUUGGUUGGGGAAAGUAUUAUGUUACGCCGUUCGGAUCUGCACUUCCA", "log2 enrichment": -0.00898}
{"Strand": "GUCCUGUGCUACACAUCGUAUGUACCGAAUCAAAUUUUUUUAAAUUUUUAAACCCAAAAAAGUAUUAUGUUACGCCGUUCGGAUCUGCAC", "log2 enrichment": 0.182}
{"Strand": "UCCUGUGCUACACAUCGUAUGUACCGAAUCGGGGAGGGGUUUUUUUGGGGUUUUUGGGGAAAGUAUUAUGUUACGCCGUUCGGAUCUGCA", "log2 enrichment": 0.827}
{"Strand": "GUCCUGUGCUACACAUCGUAUGUACCGAAUCGGGAAAAAAAGGGAAAAAGGGAAAGGGAAAGUAUUAUGUUACGCCGUUCGGAUCUGCAC", "log2 enrichment": -0.361}
{"Strand": "AAGUCCUGUGCUACACAUCGUAUGUACCGAAUCGGAAAAGGGAAAAGGGAAAAGGGGAAAGUAUUAUGUUACGCCGUUCGGAUCUGCACU", "log2 enrichment": -0.0348}
